# Measurements of several laboratories.
# Each line is one published result; not all experiments were run side by side. Numbers after ± are the reported error.
SMILES,tested on,test,test system,conditions,scale,endpoint,result
COc1ccc(-c2ccc3c(N)c(C(=O)N4CCOCC4)sc3n2)cc1OC,Mycobacterium tuberculosis,growth inhibition,H37Rv LepB under-expressing,,,IC50,24 ± 10 µM
COc1cccc(-c2cc(=O)c3ccccc3o2)c1N,RXFP1,,RXFP1-expressing cells,concentration not given,,basal cAMP level,no effect
Nc1ncnc2c1ncn2[C@@H]1O[C@@H]2COP(=O)(O)O[C@H]3[C@@H](O)[C@H](n4cnc5c(=O)[nH]cnc54)O[C@@H]3COP(=O)(O)O[C@H]2[C@H]1O,HFF-1,"RNA sequencing Reactome analysis, item: Reactome R-HSA-5627117",,together with: West Nile virus infection,"reference: West Nile virus infected cells, downregulated pathway",pathway fold enrichment,12.4
O=c1c2cc(Cl)ccc2[nH]c(=S)n1Cc1ccncc1,Mycobacterium tuberculosis,,PptT conditional knockdown,,,MIC90,> 100 µM
COc1cc(CCC[P+](c2ccccc2)(c2ccccc2)c2ccccc2)c(OC)c2c1OCO2.[I-],OVCAR-8,SRB,,,,LC50,> -4 log M
CC(C)(C)n1nnnc1C(c1ccc([N+](=O)[O-])cc1)N1CCc2ccccc2C1 (centres unmarked),Schistosoma mansoni,microscopic viability scoring,newly transformed schistosomula,"10 µM, 72 h, prescreen",,viability reduction,12.5%
CC[C@H](C)[C@H](NC(=O)[C@H](C)NC(=O)[C@H](CCCCN)NC(=O)[C@H](CC(C)C)NC(=O)[C@H](C)NC(=O)[C@@H](NC(=O)[C@H](Cc1c[nH]cn1)NC(=O)[C@H](CC(C)C)NC(=O)[C@@H](NC(=O)[C@@H](NC(=O)[C@H](CCCCN)NC(=O)[C@H](C)NC(=O)[C@H](C)NC(=O)[C@H](CO)NC(=O)[C@H](CCCCN)NC(=O)[C@H](Cc1ccccc1)NC(=O)[C@@H](NC(=O)[C@H](CCCCN)NC(=O)[C@H](CC(C)C)NC(=O)[C@H](Cc1ccccc1)NC(=O)[C@H](CO)NC(=O)[C@H](CCCCN)NC(=O)[C@H](Cc1c[nH]c2ccccc12)NC(=O)[C@H](CCCCN)NC(C)=O)[C@@H](C)O)[C@@H](C)O)C(C)C)[C@@H](C)O)C(=O)N[C@@H](CO)C(=O)N[C@@H](CO)C(N)=O,Enterobacter aerogenes,,,40 strains,,MIC50,8 µg/mL
COc1ccc(-c2cc(C(F)(F)F)c3c(N)c(C(=O)Nc4ccc(C)cc4C)sc3n2)cc1,Mycobacterium tuberculosis,growth inhibition,H37Rv LepB under-expressing,,,IC50,0.55 ± 0.3 µM
CN1CCN(S(=O)(=O)c2cc([N+](=O)[O-])ccc2N(CCOS(C)(=O)=O)CCOS(C)(=O)=O)CC1,,,"NSG mice, sample BB PDX","intraperitoneal, 25 mg/kg weekly x3",reference: vehicle,EFS delay (T-C),23.9 days
Nc1c(C(=O)NCc2ccccc2)sc2nc(-c3ccccc3)ccc12,Mycobacterium tuberculosis,growth inhibition,H37Rv LepB under-expressing,,,IC50,14 ± 10 µM
COc1c(CCC[P+](c2ccccc2)(c2ccccc2)c2ccccc2)cc2c(c1OC)OCO2.[I-],HT-29,SRB,,,,LC50,> -4 log M
CC[C@H](C)[C@@H]1NC(=O)[C@@H]2CCCN2C(=O)[C@H](CC(C)C)NC(=O)[C@H](CC(C)C)NC(=O)CNC(=O)[C@@H](NC(=O)[C@@H](NC(=O)[C@H](CC(=O)O)NC(=O)CNC(=O)[C@@H](NC(=O)[C@H](C)NC(=O)CNC(=O)[C@H](CCCCN)NC(=O)[C@H](CC(C)C)NC(=O)[C@H](CC(C)C)NC(=O)[C@H](CCCCN)NC(=O)CNC(=O)[C@@H](NC(=O)[C@@H](N)CC(C)C)C(C)C)C(C)C)C(C)C)CSSC[C@@H](C(=O)O)NC1=O,,"RNA-seq, item: Dok3","mouse, traumatic brain injury model, frontal cortex and hippocampus",dose not given,reference: TBI alone,log2 fold change,-1.66
CCCCC1(CCCC)CN(c2ccccc2)c2cc(SC)c(OCC(=O)N[C@@H](C(=O)NCC(=O)O)c3ccccc3)cc2S(=O)(=O)C1,,item: LDL cholesterol,"human, serum","5 mg once daily, day 2",,serum LDL-C,121 mg/dL
Clc1cccc(Cl)c1CSc1nc2ccccc2s1,Schistosoma mansoni,microscopic viability scoring,newly transformed schistosomula,"10 µM, 72 h, prescreen",,viability reduction,6.9%
CS(=O)(=O)CCCn1c(Cn2c(=O)n(CC(F)(F)F)c3ccncc32)cc2cc(Cl)ccc21,respiratory syncytial virus,RT-qPCR,"hospitalized infants 1-24 months, nasal swab","oral, 9, 6 or 5 mg/kg daily, day 14, high dose by age cohort",reference: baseline,LS mean viral load change,-5.4 log10 copies/mL
CCC1(c2ccc(N)cc2)CCC(=O)NC1=O (centres unmarked),7702 normal human cells,"cell growth, CCK-8",,48 h,,IC50,> 50 µM
COC(=O)c1cccc(-c2ccc3c(c2)C=C2C(=O)CCCC2O3)c1[N+](=O)[O-] (centres unmarked),Schistosoma mansoni,microscopic viability scoring,newly transformed schistosomula,"10 µM, 72 h, prescreen",,viability reduction,20%
COc1c(C)c2c(c(O)c1C/C=C(\C)CCC(=O)O)C(=O)OC2,J82,cell proliferation,bladder cancer,,,IC50,3.39 µM
CNc1ncc2c(/C=C/C(=O)N3CCC4(CC3)OCCO4)nn(Cc3cccc(C(F)(F)F)c3)c2n1,CP-A pre-malignant,"cell viability, PrestoBlue",,120 h,,EC50,0.12 µM
Cc1cccc(NC(=O)c2sc3nc(-c4cccs4)cc(C(F)(F)F)c3c2N)c1C,Mycobacterium tuberculosis,,H37Rv wild type,120 h,,IC90,inactive

# Some of these lines once more:
SMILES,tested on,test,test system,conditions,scale,endpoint,result
COc1c(C)c2c(c(O)c1C/C=C(\C)CCC(=O)O)C(=O)OC2,J82,cell proliferation,bladder cancer,,,IC50,3.39 µM
CNc1ncc2c(/C=C/C(=O)N3CCC4(CC3)OCCO4)nn(Cc3cccc(C(F)(F)F)c3)c2n1,CP-A pre-malignant,"cell viability, PrestoBlue",,120 h,,EC50,0.12 µM
Cc1cccc(NC(=O)c2sc3nc(-c4cccs4)cc(C(F)(F)F)c3c2N)c1C,Mycobacterium tuberculosis,,H37Rv wild type,120 h,,IC90,inactive
